Experimental data collected from several papers.
Parts stem from different laboratories: compare values within a part only. Positions count from the first letter of the parent shown.
Sequence of UniProt Q84WU6 (whole entry, looked up): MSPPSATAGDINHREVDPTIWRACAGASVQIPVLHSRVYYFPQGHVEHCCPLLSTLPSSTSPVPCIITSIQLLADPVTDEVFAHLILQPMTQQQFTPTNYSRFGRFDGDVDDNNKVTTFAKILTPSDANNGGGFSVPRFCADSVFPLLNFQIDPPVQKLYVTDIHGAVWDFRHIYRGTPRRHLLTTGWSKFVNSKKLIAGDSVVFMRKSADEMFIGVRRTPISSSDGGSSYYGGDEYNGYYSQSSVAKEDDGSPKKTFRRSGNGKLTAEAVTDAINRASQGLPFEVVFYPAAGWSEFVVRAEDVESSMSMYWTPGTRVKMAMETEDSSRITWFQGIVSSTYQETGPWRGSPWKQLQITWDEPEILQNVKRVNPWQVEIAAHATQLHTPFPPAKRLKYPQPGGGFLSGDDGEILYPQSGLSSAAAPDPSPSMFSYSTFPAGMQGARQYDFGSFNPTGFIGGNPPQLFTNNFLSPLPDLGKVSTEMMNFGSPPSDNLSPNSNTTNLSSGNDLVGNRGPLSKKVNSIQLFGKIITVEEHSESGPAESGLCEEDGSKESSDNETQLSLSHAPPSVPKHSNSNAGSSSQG

Block 1
Target: TAR DNA-binding protein 43, full length, His tag (TARDBP, Homo sapiens, UniProt Q13148, residues 1-414)
Technique: RNA Bind-n-Seq
Form: RNA
Sample: in vitro
Tested at: 20 nM
Setting: 6-mer, flanks averaged, single round
With: 150 mM LiCl
Reference: input library
Reading: higher = stronger binding
`UAUUUC` — result for “6-mer enrichment (R)”: 1.04.
`GGGACA` — result for “6-mer enrichment (R)”: 1.04.
`AACGUG`: “6-mer enrichment (R)” 0.969.
Under “6-mer enrichment (R)”, `UGAAAG` is recorded as 0.959.
`AGGACA` — result for “6-mer enrichment (R)”: 0.9.
`ACGUAU` — result for “6-mer enrichment (R)”: 0.933.
`AUCCGA`: “6-mer enrichment (R)” 0.802.
`CCAAAU` — result for “6-mer enrichment (R)”: 0.891.

Block 2
Target: Sal-like protein 4, full length isoform A (SALL4, Homo sapiens, UniProt Q9UJQ4, residues 1-1053)
Sequence of UniProt Q9UJQ4 (whole entry, looked up): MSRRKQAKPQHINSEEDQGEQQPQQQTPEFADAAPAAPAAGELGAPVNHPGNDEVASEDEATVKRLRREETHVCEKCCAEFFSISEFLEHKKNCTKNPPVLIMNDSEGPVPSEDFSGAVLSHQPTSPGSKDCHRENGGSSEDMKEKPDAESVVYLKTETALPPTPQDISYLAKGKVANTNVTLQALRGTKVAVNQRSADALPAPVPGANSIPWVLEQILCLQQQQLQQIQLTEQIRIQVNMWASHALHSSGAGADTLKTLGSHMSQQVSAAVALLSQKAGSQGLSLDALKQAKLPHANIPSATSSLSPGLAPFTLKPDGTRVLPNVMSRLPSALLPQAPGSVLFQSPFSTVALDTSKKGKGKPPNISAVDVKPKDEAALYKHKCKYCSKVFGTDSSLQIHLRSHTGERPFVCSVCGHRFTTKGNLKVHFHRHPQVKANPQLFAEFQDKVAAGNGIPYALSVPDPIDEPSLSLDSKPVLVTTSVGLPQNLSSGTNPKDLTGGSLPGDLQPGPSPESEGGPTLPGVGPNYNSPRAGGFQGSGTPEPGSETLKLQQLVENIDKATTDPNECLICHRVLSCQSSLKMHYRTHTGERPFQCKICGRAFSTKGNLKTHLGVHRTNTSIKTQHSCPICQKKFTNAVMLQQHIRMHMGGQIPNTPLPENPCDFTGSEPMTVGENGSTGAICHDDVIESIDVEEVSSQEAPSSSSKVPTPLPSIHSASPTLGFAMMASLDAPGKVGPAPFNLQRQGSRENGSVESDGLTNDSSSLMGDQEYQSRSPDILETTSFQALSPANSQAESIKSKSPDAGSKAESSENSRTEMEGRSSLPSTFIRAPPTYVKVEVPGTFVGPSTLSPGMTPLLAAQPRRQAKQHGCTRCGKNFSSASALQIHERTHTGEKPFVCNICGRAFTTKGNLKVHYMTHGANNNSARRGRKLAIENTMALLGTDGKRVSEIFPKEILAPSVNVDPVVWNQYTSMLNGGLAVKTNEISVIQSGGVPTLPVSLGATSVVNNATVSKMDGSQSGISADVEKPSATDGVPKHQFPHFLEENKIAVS
Technique: universal PBM
Form: double-stranded DNA, one strand shown
Sample: in vitro
Tested at: 600 nM
Setting: 8-mer, flanks averaged, mean of replicates
Reading: higher = stronger binding
`GCTATCAA` has an E-score of 0.0979.
`AAGAAACG` gave an E-score of 0.0274.
`CAATAAGA` has an E-score of 0.255.
`AATTCCTA` gave an E-score of 0.157.
For `GTCTAGAC`, the E-score was -0.274.
`CCGGGCCG` has an E-score of -0.436.
The E-score of `GATGACGC` is reported as -0.151.
For `AGCCGCGC`, the E-score was -0.36.

Mixed results
B1: ARF11 500-622 (Arabidopsis thaliana, UniProt Q9ZPY6); chain SPKEQKQQTSTRSRIKVQMQGTAVGRAVDLTLLRSYDELIKELEKMFEIEGELSPKDKWAIVFTDDEGDRMLVGDDPWNEFCKMAKKLFIYPSDEVKKMRSKSLLGDKGTIVNLESDQRTVHV
P1: PafA, mature enzyme, eGFP fusion (Elizabethkingia meningoseptica, UniProt Q9KJX5); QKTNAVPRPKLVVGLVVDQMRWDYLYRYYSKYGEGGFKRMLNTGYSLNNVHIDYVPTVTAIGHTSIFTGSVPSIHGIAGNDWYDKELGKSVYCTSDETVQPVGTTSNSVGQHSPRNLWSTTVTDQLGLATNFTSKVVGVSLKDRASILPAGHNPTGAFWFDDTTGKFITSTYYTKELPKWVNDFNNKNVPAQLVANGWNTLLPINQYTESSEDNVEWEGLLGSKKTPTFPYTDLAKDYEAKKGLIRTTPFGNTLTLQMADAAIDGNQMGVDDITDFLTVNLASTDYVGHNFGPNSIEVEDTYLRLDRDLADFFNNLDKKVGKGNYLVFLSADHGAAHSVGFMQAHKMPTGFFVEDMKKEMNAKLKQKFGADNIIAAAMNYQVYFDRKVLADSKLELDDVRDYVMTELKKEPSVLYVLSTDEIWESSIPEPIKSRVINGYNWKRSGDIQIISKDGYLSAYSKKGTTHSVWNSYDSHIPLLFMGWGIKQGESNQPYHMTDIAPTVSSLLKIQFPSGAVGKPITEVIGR
With `B1 (ARF11 500-622)` the positive tests was 0 (ARF17 (Arabidopsis thaliana, UniProt Q84WU6); two-hybrid; weak activation fusion; reference: out of 2 tests, higher = firmer interaction).
Under “oxyanion analog dissociation constant”, `P1 D264G` is recorded as 0.644 µM (vanadate, free oxyanion; microfluidic competitive inhibition; in vitro, cell-free expressed; not given, derived from inhibition constants, unchanged parent 676 nM; lower = stronger binding).

Repeated from above (block 1):
`AACGUG`: “6-mer enrichment (R)” 0.969.
`CCAAAU` — result for “6-mer enrichment (R)”: 0.891.
